Measured values gathered from unrelated publications.
Parts stem from different laboratories: compare values within a part only.
Chain of UniProt O60674 (whole entry, looked up): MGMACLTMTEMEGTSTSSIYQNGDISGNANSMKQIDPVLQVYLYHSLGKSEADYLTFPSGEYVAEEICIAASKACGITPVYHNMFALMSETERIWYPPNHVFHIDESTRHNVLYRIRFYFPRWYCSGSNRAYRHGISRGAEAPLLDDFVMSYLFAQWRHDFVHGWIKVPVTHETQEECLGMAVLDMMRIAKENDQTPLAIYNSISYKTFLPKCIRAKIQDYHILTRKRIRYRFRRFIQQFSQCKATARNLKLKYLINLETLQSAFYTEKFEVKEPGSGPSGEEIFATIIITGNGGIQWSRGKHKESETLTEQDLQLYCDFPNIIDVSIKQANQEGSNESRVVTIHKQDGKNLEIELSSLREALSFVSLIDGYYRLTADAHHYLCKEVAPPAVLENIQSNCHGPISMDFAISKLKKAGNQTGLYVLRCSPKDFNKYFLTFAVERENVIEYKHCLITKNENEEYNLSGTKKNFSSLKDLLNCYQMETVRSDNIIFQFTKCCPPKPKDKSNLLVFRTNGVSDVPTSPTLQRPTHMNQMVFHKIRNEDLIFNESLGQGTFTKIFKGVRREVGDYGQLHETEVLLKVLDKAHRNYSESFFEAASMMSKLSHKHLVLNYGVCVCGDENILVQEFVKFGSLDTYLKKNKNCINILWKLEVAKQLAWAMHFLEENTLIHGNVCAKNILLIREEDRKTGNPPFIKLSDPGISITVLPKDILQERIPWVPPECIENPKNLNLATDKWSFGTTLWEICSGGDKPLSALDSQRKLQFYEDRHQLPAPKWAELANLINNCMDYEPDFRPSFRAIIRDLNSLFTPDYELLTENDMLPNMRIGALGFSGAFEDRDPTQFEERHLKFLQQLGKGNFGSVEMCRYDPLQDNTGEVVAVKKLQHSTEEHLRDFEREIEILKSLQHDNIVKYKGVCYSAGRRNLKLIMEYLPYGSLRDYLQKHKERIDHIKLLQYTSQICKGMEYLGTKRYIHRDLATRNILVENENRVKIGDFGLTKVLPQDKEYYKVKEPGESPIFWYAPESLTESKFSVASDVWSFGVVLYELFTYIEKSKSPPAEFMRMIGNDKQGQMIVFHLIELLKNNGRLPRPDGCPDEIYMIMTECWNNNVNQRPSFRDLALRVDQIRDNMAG
Chain of UniProt Q96Q40 (whole entry, looked up): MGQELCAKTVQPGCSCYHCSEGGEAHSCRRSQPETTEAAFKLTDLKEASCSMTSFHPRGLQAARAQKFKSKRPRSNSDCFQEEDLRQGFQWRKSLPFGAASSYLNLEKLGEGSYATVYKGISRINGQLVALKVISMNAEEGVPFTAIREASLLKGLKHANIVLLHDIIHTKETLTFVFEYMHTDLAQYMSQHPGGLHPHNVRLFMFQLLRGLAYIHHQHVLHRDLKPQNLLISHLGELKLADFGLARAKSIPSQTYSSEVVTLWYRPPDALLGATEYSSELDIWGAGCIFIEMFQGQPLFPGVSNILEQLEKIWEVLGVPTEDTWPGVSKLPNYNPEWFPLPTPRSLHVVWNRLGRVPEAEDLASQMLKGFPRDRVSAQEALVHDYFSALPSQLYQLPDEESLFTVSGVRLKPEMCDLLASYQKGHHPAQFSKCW
Chain of UniProt Q16513 (whole entry, looked up): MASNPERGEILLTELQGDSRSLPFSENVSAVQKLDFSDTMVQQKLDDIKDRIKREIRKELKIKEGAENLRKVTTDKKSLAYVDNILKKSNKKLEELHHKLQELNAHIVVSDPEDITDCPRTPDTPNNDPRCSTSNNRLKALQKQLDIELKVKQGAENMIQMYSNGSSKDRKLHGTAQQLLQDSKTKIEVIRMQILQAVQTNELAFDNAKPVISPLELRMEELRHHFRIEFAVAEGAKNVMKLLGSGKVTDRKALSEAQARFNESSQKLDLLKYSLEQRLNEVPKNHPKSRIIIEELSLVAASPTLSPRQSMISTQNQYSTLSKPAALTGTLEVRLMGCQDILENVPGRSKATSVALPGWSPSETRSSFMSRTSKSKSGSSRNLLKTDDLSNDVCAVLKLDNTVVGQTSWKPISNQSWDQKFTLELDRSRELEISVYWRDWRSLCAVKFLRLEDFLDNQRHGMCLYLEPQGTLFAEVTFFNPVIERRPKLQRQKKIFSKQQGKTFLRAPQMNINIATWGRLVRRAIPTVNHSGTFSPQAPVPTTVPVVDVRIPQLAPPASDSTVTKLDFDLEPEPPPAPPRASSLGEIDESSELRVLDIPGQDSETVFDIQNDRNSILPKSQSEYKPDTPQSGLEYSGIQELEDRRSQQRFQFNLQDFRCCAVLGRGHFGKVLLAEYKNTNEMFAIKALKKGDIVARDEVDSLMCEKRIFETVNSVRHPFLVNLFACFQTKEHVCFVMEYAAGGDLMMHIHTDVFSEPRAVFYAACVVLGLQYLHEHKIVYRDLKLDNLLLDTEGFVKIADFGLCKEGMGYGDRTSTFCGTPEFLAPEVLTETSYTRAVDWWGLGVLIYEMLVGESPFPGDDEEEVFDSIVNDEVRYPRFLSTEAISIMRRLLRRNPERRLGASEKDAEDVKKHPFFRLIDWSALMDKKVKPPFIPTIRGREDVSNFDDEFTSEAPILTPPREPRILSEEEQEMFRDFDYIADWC
Chain of UniProt P07948 (whole entry, looked up): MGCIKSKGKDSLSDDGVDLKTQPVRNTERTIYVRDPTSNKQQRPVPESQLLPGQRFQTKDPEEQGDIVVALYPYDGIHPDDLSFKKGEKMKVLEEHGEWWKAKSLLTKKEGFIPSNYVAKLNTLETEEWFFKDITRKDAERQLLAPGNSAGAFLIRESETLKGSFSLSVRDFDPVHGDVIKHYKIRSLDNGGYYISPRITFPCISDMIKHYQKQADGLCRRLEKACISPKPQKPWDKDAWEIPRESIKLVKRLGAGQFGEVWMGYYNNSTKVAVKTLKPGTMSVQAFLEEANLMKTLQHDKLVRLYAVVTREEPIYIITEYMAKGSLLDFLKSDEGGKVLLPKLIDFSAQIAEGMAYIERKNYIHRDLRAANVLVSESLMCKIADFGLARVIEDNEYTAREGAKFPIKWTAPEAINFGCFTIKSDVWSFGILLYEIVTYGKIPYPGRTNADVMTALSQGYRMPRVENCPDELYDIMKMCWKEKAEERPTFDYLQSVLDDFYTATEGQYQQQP
Chain of UniProt P57059 (whole entry, looked up): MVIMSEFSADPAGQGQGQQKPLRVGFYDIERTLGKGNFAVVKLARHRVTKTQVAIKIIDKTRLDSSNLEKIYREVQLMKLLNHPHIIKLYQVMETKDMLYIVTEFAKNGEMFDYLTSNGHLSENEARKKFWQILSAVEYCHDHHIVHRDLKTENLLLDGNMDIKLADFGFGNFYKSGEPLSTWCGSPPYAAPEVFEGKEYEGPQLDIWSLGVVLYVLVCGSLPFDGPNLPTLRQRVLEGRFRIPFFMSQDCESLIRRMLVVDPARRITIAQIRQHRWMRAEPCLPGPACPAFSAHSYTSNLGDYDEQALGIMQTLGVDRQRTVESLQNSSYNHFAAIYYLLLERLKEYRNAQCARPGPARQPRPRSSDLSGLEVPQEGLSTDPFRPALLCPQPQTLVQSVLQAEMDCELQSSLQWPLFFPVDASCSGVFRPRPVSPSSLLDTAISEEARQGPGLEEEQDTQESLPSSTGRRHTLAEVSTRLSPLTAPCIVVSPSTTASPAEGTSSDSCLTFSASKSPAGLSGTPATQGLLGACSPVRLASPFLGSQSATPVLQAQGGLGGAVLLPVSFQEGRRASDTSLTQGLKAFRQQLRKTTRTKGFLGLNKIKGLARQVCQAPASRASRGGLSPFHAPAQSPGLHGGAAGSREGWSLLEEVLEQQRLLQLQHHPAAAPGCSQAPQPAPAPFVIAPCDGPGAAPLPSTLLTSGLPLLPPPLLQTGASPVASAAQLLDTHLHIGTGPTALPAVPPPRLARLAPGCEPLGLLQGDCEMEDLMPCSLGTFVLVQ

Sample 1
Target: Prothrombin, mature alpha-thrombin (F2, Homo sapiens, UniProt P00734)
Method: aptamer microarray, sandwich
Molecule type: DNA with 2'F-ANA
Sample: in vitro
Tested at: 200 nM
Notes: whole 15-mer aptamer, many near background
Added: Cy3 exosite-II aptamer, 400 nM
Direction: higher = stronger binding
Oligonucleotide: GGTTGGTGTGGTTGG
`2'F-ANA at 1 2 5 6 7 8 10 13 14`: “mean fluorescence intensity” 86.7 a.u.
`2'F-ANA at 1 2 8 11 12 13 14 15` — result for “mean fluorescence intensity”: 66.7 a.u.
Under “mean fluorescence intensity”, `2'F-ANA at 1 2 4 5 7 8 9 10 12 13` is recorded as 49.4 a.u.
For `2'F-ANA at 3 6 7 8 10 11 14 15`, “mean fluorescence intensity” read 322 a.u.
`2'F-ANA at 1 2 3 5 6 7 15` — result for “mean fluorescence intensity”: 61.4 a.u.
Under “mean fluorescence intensity”, `2'F-ANA at 2 3 5 7 8 10` is recorded as 60.2 a.u.
`2'F-ANA at 2 3 4 5 6 8 10 12 14 15`: “mean fluorescence intensity” 49.4 a.u.
Under “mean fluorescence intensity”, `2'F-ANA at 1 2 3 4 6 7 8 10 11 13 15` is recorded as 55.3 a.u.

Sample 2
Target: Epidermal growth factor receptor (EGFR, Homo sapiens, UniProt P00533)
Read-out: enzyme activity
Action: inhibitor
Tested at: 0.5 µM
Reference: control
`Cc1cc2ncc(-c3ccccc3)nc2cc1C` has a remaining activity of 84.5%.
With `O=C(NC(NC(=S)Nc1ccc(F)c([N+](=O)[O-])c1)C(Cl)(Cl)Cl)C(c1ccccc1)c1ccccc1` (stereo not shown) the remaining activity was 108%.
The remaining activity of `O=C1C(Cl)=C(N2C(=O)CCC2=O)C(=O)c2ccccc21` is reported as 98.4%.
The remaining activity of `O=c1cc(-c2cccc3c2Sc2ccccc2S3)oc(N2CCOCC2)c1` is reported as 107%.
`Cn1nc2c3c(cccc31)C(=O)c1ccccc1-2` gave a remaining activity of 105%.
`Nc1cccc(-c2cc3c(Oc4cccc(O)c4)ncnc3[nH]2)c1` gave a remaining activity of 7.89%.
With `Ic1cccc(CSc2nnc(-c3ccncc3)o2)c1` the remaining activity was 97.1%.
The remaining activity of `COc1cc2ncnc(Nc3ccc(O)c(Br)c3)c2cc1OC` is reported as 2.22%.
For `CN([C@@H](Cc1ccc(OS(=O)(=O)c2cccc3cnccc23)cc1)C(=O)N1CCN(c2ccccc2)CC1)S(=O)(=O)c1cccc2cnccc12`, the remaining activity was 89.4%.
`Cc1nc2cc3nc(-c4cccs4)cnc3cc2n1C` gave a remaining activity of 104%.
With `CN(C)C[C@H]1CCn2c(c(C3=C(c4cn(C)c5ccccc45)C(=O)NC3=O)c3ccccc32)C1` the remaining activity was 95.8%.
The remaining activity of `O=C(Nc1cccc(Nc2nccc(Nc3cccc(C(F)(F)F)c3)n2)c1)C1CC1` is reported as 87.6%.
The remaining activity of `Cc1cn(-c2cc(NC(=O)c3ccc(C)c(Nc4nccc(-c5cccnc5)n4)c3)cc(C(F)(F)F)c2)cn1` is reported as 86.9%.
With `CCN(CC)C(=O)c1ccc(Nc2nc(OCC3CCCCC3)c3[nH]cnc3n2)cc1` the remaining activity was 88.5%.

Sample 3
Target: Histone acetyltransferase KAT6A, winged helix 1, GST fusion (KAT6A, Homo sapiens, UniProt Q92794, residues 1-85)
Method: protein binding microarray
Molecule type: double-stranded DNA, one strand shown
Sample: in vitro
Tested at: not given
Notes: 8-mer, flanks averaged, mean of 2 arrays, mostly near background
Reference: not given
Direction: higher = stronger binding
Construct (chain): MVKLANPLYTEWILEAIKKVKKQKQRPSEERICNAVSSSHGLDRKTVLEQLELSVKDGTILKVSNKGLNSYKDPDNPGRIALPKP
For `TCTATCAA`, the E-score was -0.208.
`AATTACTA` gave an E-score of -0.072.
For `GAGGAAGC`, the E-score was -0.0134.
The E-score of `ATTCCGAG` is reported as -0.013.
`TAAGCGTA` has an E-score of 0.0505.
The E-score of `GTATTACA` is reported as 0.00504.
For `ACTTGTCT`, the E-score was -0.252.
`CCTCCTTC` gave an E-score of -0.0755.

Sample 4
Compound: COc1cc(-c2cn(C3CCc4ccccc4N(CC(F)(F)F)C3=O)nn2)ccc1-n1ccc(C)n1 (stereo not shown)
Tested at: 1 µM
FLT3 (Homo sapiens, UniProt P36888, ITD); cell-free assay, competition with immobilised ligand — remaining binding: 98%.
The remaining binding was 99% (DDR2 (Homo sapiens, UniProt Q16832); cell-free assay, competition with immobilised ligand).
It gave 88% for remaining binding (Tyrosine-protein kinase JAK3, JH1 (JAK3, Homo sapiens, UniProt P52333); cell-free assay, competition with immobilised ligand).
The remaining binding was 100% (FLT1 (Homo sapiens, UniProt P17948); cell-free assay, competition with immobilised ligand).
For SIK1 (Homo sapiens, UniProt P57059); competition binding: remaining binding read 100%.
PKN2 (Homo sapiens, UniProt Q16513); cell-free assay, competition with immobilised ligand — remaining binding: 98%.
CDK15 (Homo sapiens, UniProt Q96Q40); cell-free assay, competition with immobilised ligand — remaining binding: 100%.
EPHA1 (Homo sapiens, UniProt P21709); cell-free assay, competition with immobilised ligand — remaining binding: 89%.
It gave 92% for remaining binding (GAK (Homo sapiens, UniProt O14976); cell-free assay, competition with immobilised ligand).
The remaining binding was 34% (JAK2 (Homo sapiens, UniProt O60674); binding, competition with immobilised ligand).
It gave 100% for remaining binding (LYN (Homo sapiens, UniProt P07948); cell-free assay, competition with immobilised ligand).
WEE2 (Homo sapiens, UniProt P0C1S8); cell-free assay, competition with immobilised ligand — remaining binding: 100%.
For EPHB2 (Homo sapiens, UniProt P29323); cell-free assay, competition with immobilised ligand: remaining binding read 100%.

For quick reference, copied from above (sample 2):
`Cc1cc2ncc(-c3ccccc3)nc2cc1C` has a remaining activity of 84.5%.
The remaining activity of `O=C1C(Cl)=C(N2C(=O)CCC2=O)C(=O)c2ccccc21` is reported as 98.4%.
The remaining activity of `O=C(Nc1cccc(Nc2nccc(Nc3cccc(C(F)(F)F)c3)n2)c1)C1CC1` is reported as 87.6%.
For `CN([C@@H](Cc1ccc(OS(=O)(=O)c2cccc3cnccc23)cc1)C(=O)N1CCN(c2ccccc2)CC1)S(=O)(=O)c1cccc2cnccc12`, the remaining activity was 89.4%.
The remaining activity of `O=c1cc(-c2cccc3c2Sc2ccccc2S3)oc(N2CCOCC2)c1` is reported as 107%.
With `CN(C)C[C@H]1CCn2c(c(C3=C(c4cn(C)c5ccccc45)C(=O)NC3=O)c3ccccc32)C1` the remaining activity was 95.8%.
`Cc1nc2cc3nc(-c4cccs4)cnc3cc2n1C` gave a remaining activity of 104%.
